Experimental data from different studies.
Each line is one published result; not all experiments were run side by side. Values joined by “and” are separate records of one study, mostly repeats; a detail may differ.
BTK: Tyrosine-protein kinase BTK (BTK, Homo sapiens, UniProt Q06187)
Sequence of UniProt Q06187 (whole entry, unmodified, looked up): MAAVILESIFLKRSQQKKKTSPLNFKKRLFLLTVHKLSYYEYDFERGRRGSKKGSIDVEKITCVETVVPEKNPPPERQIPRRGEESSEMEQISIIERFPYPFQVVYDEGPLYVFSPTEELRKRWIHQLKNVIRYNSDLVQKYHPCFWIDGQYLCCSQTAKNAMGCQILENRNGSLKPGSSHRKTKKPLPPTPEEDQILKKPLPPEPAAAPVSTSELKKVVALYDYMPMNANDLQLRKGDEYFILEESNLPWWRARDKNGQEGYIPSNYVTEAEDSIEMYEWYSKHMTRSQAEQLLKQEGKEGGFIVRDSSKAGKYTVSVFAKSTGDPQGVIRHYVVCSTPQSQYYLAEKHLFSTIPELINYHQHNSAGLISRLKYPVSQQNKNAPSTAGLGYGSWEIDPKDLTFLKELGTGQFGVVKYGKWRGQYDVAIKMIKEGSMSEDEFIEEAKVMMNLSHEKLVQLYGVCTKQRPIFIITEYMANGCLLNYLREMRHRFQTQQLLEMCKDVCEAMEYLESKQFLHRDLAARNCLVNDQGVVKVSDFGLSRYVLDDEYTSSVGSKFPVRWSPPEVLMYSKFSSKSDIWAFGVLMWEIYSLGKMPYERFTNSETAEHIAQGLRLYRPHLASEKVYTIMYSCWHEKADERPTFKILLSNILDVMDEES

COc1cc(Nc2nccc(-c3cnn4nc(OC)ccc34)n2)cc(C(F)(F)F)c1  remaining binding (BTK; binding, competition with immobilised ligand; 1 µM): 100%
CC1CCN(c2ccc(-c3n[nH]c(=O)c4cccnc34)cc2)CC1  remaining binding (BTK; cell-free assay, competition with immobilised ligand; 10 µM): 5.7%
Cc1cccc(-c2ccc3nc(NC(=O)C4CCCO4)nn3c2)c1 (stereo not drawn)  remaining activity (BTK; enzyme activity, Dundee kinase panel; 10 µM): 63%
CN1CCN(Cc2ccc(NC(=O)c3cccc(C#Cc4cnc(N)c5ncccc45)c3)cc2C(F)(F)F)CC1  remaining binding (BTK; cell-free assay, competition with immobilised ligand; 50 nM): 61%
C=CC(=O)N1CCc2ccc(-n3c(=O)ccc4cnc5ccc(-c6cnn(C)c6)cc5c43)cc21  remaining binding (BTK; KINOMEscan; 1 µM; reference: DMSO control): 5.1%
C[C@H]1CN(C(=O)c2cn(-c3ccnc(N)n3)c3cc(C#CC4(O)CCCCC4)ccc23)CCN1  inhibition (BTK; enzyme activity, inhibitor, FRET; 1 µM): 3%
COc1ccc(NC(=O)Nc2ccc3c(c2)C(=O)N(C(C)CO)CC(C)C(CN(C)Cc2ccc4c(c2)OCO4)O3)cc1 (stereo not drawn)  remaining binding (BTK; binding, competition with immobilised ligand; 10 µM): 94%
Cc1ccc(C)c(-c2ccc3nc(NC(=O)C4CCCCC4)nn3c2)c1  remaining activity (BTK; enzyme activity, Dundee kinase panel; 10 µM): 61%
CNC(=O)C1CCN(c2cc(C)c(F)cc2NC(=O)c2ccc(-c3cc(O)ccc3C)c(C)c2)CC1  remaining binding (BTK; binding, competition with immobilised ligand; 1 µM): 93%
C=CC(=O)Nc1cccc(-c2cnc3[nH]cc(C(=O)NC(C)(C)C)c3n2)c1  inhibition (BTK; kinase activity; 0.1 µM): 28% and 31%
COCC12C(=O)NC3C4(C(OC)CC1O)C1CC5(O)C(OC)C(O)C(OC(C)=O)(C1C5OC(=O)c1ccccc1)C3(O)C(OC)C24 (stereo not drawn)  remaining activity (BTK; kinase activity, inhibitor, ProQinase kinase profiling; 25 µM; reference: control): 108% and 101%
Cc1cnc2nc1Nc1cccc(c1)COC/C=C/COCc1cc(ccc1OCCN1CCOCC1)N2  percent of control (BTK; concentration not given): 50%
NC(=O)C[C@H]1CCc2sc3ncnc(O[C@H]4CC[C@H](N5CCOCC5)CC4)c3c21  inhibition (BTK; enzyme activity, inhibitor; 10 µM): 8%
COc1c(OCCCN2CCOCC2)ccc2c1N=C(NC(=O)c1cnc(N)nc1)N1CCN=C21  remaining activity (BTK; kinase activity, inhibitor; 1 µM; reference: untreated control): 107%
CC(C)=CC1OC(C)(C)C2C=C3C(=O)C(Cl)=CC(O)C3C3C(O)C4OC4C(=O)C132 (stereo not drawn)  remaining binding (BTK; cell-free assay, competition with immobilised ligand; 10 µM): 98%
CNS(=O)(=O)Nc1nccc(Cc2c(C)c3ccc(Oc4ncccc4F)cc3oc2=O)c1F  remaining binding (BTK; binding, competition with immobilised ligand; 10 µM): 100%
O=C=[N][Ru-4]123([n]4c5ccc(O)cc5c5c6c(c7cc(F)c[n+]1c7c54)C(=O)NC6=O)[S+]1CC[S+]2CC[S+]3CC1 (stereo not drawn)  remaining activity (BTK; enzyme activity; 100 nM, human enzyme, together with: 10 µM ATP; reference: untreated): 99%
O=C(Cc1ccc(OCc2ccccc2)cc1)NC1(C(=O)O)CCN(C(=O)c2ccc(-c3cccc(Cl)c3)cc2)CC1  activity vs control (BTK; enzyme activity, inhibitor; 10 µM): 82%
Cc1nc2c(F)cc(-c3nc(Nc4ccc(CNC(=O)CCCCCCC(=O)NO)cc4)ncc3F)cc2n1C(C)C  inhibition (Tyrosine-protein kinase BTK (BTK, Homo sapiens, UniProt Q06187, R28H); enzyme activity, inhibitor; 1 µM): 14%
Nc1nc(Nc2ccccc2)sc1C(=O)c1ccccc1  remaining activity (BTK; enzyme activity, inhibitor; 10 µM): 60%
c1ccc2c(Nc3cc(C4CCC4)[nH]n3)nc(Nc3ccc4nc[nH]c4c3)nc2c1  remaining activity (BTK; enzyme activity, inhibitor; 0.25 µM): 14%
Cc1cccc(O[C@H]2CCC[C@@H](C(C)CNCc3ccncc3)C2)c1 (relative stereo)  inhibition (BTK; kinase activity, kinome panel screening; 1 µM): 0%
Nc1ncc2c(n1)-c1c([nH]c3ccc(C4=CCOCC4)cc13)CCC2  remaining binding (BTK; binding, competition with immobilised ligand; 1 µM): 95%
Cc1ccc(-c2c(/C=C(\C#N)C(=O)NC(C)C)n(CCCO)c3ncnc(N)c23)cc1  remaining binding (BTK; cell-free assay, competition with immobilised ligand; 1 µM): 95%

A few entries again:
c1ccc2c(Nc3cc(C4CCC4)[nH]n3)nc(Nc3ccc4nc[nH]c4c3)nc2c1  remaining activity (BTK; enzyme activity, inhibitor; 0.25 µM): 14%
